Results from different studies.
Numbered parts are unrelated; each lists some results of a single study. Changes are numbered by the printed parent chain.

Set 1
Target: MAFK, bZIP domain (human)
Method: DHFR protein complementation
Medium: yeast
Setting: single substitutions, most at no-binding floor
Relative to: wild-type JUN-FOS pair
Reading: higher = stronger binding
Starting sequence: JUN, bZIP domain (human); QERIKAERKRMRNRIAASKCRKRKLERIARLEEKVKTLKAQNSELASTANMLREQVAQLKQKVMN; partner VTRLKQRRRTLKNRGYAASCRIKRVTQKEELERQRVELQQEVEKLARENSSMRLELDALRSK
`Q55N` gave a binding fitness of -1.49 natural log.
With `T48Q` the binding fitness was -1.51 natural log.
With `T48L` the binding fitness was -1.49 natural log.
The binding fitness of `A40G` is reported as -1.48 natural log.
For `N42K`, the binding fitness was -1.15 natural log.
With `A49L` the binding fitness was -1.4 natural log.
`E33L` has a binding fitness of -1.42 natural log.
`S43G` gave a binding fitness of -1.42 natural log.
`S43A` gave a binding fitness of -1.36 natural log.
`R53W` has a binding fitness of -1.49 natural log.
`L52Y` gave a binding fitness of -1.47 natural log.
For `V56N`, the binding fitness was -1.27 natural log.
`M51C` has a binding fitness of -1.5 natural log.
`S43Y` has a binding fitness of -1.39 natural log.
`M51W` gave a binding fitness of -1.48 natural log.
For `R53L`, the binding fitness was -1.36 natural log.

Set 2
Target: ABI1, truncated, D143A, DHFR fusion (Arabidopsis thaliana, UniProt P49597)
Method: DHFR PCA, dose-response
Medium: yeast
Setting: Hill fit, mean, not affinity
Added: (+)-ABA, dose series
Reading: lower = more sensitive
Starting sequence: PYL1, truncated, DHFR fusion (Arabidopsis thaliana, UniProt Q8VZS8); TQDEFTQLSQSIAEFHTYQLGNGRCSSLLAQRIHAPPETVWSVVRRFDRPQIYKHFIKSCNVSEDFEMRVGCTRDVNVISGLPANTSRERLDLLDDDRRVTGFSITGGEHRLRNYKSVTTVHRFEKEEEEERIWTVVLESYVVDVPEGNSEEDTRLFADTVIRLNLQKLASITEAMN
With `R90N` the ABA EC50 was 59.8 µM.
With `Q7F` the ABA EC50 was 1.03 µM.
For `T86L`, the ABA EC50 was 33.3 µM.
For `I57Y`, the ABA EC50 was 187 µM.
`V136E` gave an ABA EC50 of 134 µM.
For `V76S`, the ABA EC50 was 160 µM.
`R69G` gave an ABA EC50 of 3.9 µM.
The ABA EC50 of `P36L` is reported as 5.49 µM.
The ABA EC50 of `T154L` is reported as 78.2 µM.
For `E147P`, the ABA EC50 was 2.66 µM.
For `F66Y`, the ABA EC50 was 4.07 µM.
The ABA EC50 of `N114R` is reported as 31.6 µM.
`M176A` has an ABA EC50 of 2.3 µM.
The ABA EC50 of `E151D` is reported as 3.33 µM.
`F66H` gave an ABA EC50 of 8.54 µM.
For `R123Y`, the ABA EC50 was 6.96 µM.
For `M176W`, the ABA EC50 was 2.34 µM.
With `D95N` the ABA EC50 was 8.26 µM.
The ABA EC50 of `H34S` is reported as 2.69 µM.
With `G71Y` the ABA EC50 was 266 µM.
With `V44C` the ABA EC50 was 12.8 µM.
The ABA EC50 of `E109W` is reported as 108 µM.
For `G21E`, the ABA EC50 was 1.99 µM.
The ABA EC50 of `W134T` is reported as 0.961 µM.
The ABA EC50 of `T101H` is reported as 94 µM.

Set 3
Target: CCNB3, cyclin fold, Cln2 fusion (human)
Method: yeast growth competition, sequencing
Medium: yeast
Setting: weak parent motif
Relative to: not given
Reading: higher = stronger binding
Starting sequence: PLK5 docking peptide (human); IFRKVGQRLLTQC
`L9A`: “normalised enrichment score” 0.416.
`F2A` — result for “normalised enrichment score”: 0.561.
`Q12A`: “normalised enrichment score” 0.343.
`C13A` — result for “normalised enrichment score”: 0.473.
`L10A`: “normalised enrichment score” 0.173.
Under “normalised enrichment score”, `R3A` is recorded as 0.0273.
`Q7A` — result for “normalised enrichment score”: 0.347.

Set 4
Target: Ras GTPase-activating protein-binding protein 1, RRM domain (G3BP1, Homo sapiens, UniProt Q13283)
Chain of UniProt Q13283 (whole entry, looked up): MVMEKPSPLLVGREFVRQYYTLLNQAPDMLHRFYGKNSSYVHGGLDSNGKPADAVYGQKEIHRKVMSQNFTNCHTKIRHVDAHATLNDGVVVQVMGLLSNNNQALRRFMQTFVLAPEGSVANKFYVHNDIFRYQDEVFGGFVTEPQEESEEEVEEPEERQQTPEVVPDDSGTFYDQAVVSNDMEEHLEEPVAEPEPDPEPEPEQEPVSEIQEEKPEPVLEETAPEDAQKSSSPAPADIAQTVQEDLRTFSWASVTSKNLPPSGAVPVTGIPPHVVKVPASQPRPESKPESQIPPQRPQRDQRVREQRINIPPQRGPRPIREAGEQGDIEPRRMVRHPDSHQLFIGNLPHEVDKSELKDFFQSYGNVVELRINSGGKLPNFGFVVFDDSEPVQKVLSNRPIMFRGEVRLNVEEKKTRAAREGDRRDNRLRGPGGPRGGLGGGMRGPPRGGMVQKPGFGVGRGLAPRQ
Method: RNA Bind-n-Seq
Molecule type: RNA
Medium: in vitro
Concentration: 1 µM
Setting: whole 134-nt RNA, ends assumed
Added: 150 mM KCl
Relative to: input library
Reading: higher = stronger binding
With `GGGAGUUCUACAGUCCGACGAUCCAAGUCCUGUGCUACACAUCGUAUGUACCGAAUCGGGGAGGGGUGGGGAAAGGGGAAAGUAUUAUGUUACGCCGUUCGGAUCUGCACUUCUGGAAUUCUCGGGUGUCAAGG` the log2 enrichment was 0.988.
`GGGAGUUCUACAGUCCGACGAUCAGUCCUGUGCUACACAUCGUAUGUACCGAAUCGGGUUUUUUUGGGUUUUUGGGAGGGAAAGUAUUAUGUUACGCCGUUCGGAUCUGCACUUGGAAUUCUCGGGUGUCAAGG` gave a log2 enrichment of 0.298.
For `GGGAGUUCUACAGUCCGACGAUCUCAAGUCCUGUGCUACACAUCGUAUGUACCGAAUCGGGCCGGGGCCGGCCGGGGAAAGUAUUAUGUUACGCCGUUCGGAUCUGCACUUCCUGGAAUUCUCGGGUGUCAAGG`, the log2 enrichment was -0.504.
`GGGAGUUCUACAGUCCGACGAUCUCCUGUGCUACACAUCGUAUGUACCGAAUCGGGGUUUUUUUGGGGAAAAAGGGGUGGGGAAAGUAUUAUGUUACGCCGUUCGGAUCUGCAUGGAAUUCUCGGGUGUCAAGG` gave a log2 enrichment of 0.407.
`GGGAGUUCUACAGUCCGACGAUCAAGUCCUGUGCUACACAUCGUAUGUACCGAAUCGGGAAAGGGAGGGUUUUUUUGGGAAAGUAUUAUGUUACGCCGUUCGGAUCUGCACUUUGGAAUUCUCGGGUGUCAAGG` gave a log2 enrichment of 0.743.
The log2 enrichment of `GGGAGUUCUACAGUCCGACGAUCUGUACUCGGAAGUUUCACUUACCAUCGACCACUCUCUGAUUCCGGAGGAGAGGCUCUCGCCCACCCCAUCCAUGCAGGAUGGGCUCGACCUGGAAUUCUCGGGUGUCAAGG` is reported as -0.196.
`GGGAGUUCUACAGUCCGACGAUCCAAGUCCUGUGCUACACAUCGUAUGUACCGAAUCGGGGUUUGGGGUUUGGUUUGGGAAAGUAUUAUGUUACGCCGUUCGGAUCUGCACUUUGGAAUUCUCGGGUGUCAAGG` gave a log2 enrichment of -0.472.
With `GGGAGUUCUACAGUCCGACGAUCUGGACCUGGUGGCAUGCGGGGAGGAAGAGGUGGCCUCAUGGAUCGUGGUGGUCCCGGUGGAAUGUUCAGAGGUGGCCGUGGUGGAGACAGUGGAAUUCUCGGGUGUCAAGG` the log2 enrichment was 0.555.
`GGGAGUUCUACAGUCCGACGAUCACCAUGCAGGUUGGCAUCUUUGGGAAGUGGGGCAAGGGGGGGAUAGGGAGGGGGGUAACACUUUGGGAACAGGUGGUCCCAGGUCGUUUCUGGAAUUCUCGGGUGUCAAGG` gave a log2 enrichment of -0.493.

Set 5
Target: Interferon regulatory factor 3, full length, phosphomimetic (IRF3, Homo sapiens, UniProt Q14653, residues 1-427, S386D/S396D/S398D/S402D/T404D/S405D)
Method: protein-binding microarray
Molecule type: double-stranded DNA, one strand shown
Medium: in vitro
Concentration: 2540 nM top
Setting: 60-bp whole probe
Added: salmon DNA 0.4 mg/ml
Relative to: random background probes
Reading: higher = stronger binding
All sequences stand within: GCCTAGCAC … GTCTTGATTCGCTTGACGCTGCTG
Target sequence (chain): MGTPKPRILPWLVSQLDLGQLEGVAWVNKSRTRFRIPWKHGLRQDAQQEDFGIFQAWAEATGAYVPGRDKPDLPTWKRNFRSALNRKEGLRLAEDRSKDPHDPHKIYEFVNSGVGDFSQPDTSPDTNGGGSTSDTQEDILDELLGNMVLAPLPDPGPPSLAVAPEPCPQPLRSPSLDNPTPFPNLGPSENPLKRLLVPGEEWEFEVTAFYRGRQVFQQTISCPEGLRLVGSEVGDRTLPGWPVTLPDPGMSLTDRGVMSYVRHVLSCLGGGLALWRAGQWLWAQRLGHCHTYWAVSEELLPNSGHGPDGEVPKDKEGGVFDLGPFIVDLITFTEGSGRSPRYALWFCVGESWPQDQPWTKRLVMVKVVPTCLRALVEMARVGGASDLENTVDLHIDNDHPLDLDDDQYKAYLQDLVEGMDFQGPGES
For `TTAGATCTCAGTATCGAATAGTGCTAG`, “fitted relative affinity” read 0.74 z-score.
Under “fitted relative affinity”, `TCATTTGTATTTTTGATACTGTGCTAG` is recorded as 1.55 z-score.
Under “fitted relative affinity”, `TTAGGACTGCTTATCCTTCAGTGCTAG` is recorded as -0.232 z-score.
`GACGATATCGGGTATCGCGACGTGCTA`: “fitted relative affinity” 0.0539 z-score.
For `TCACTACTGTATTTGGCACTGTGCTAG`, “fitted relative affinity” read 0.0727 z-score.
`TTAAGTATCCTTTTCCTTTAGTGCTAG` — result for “fitted relative affinity”: 9 z-score.
For `TTAGGTCTCCTGTTCCTTTAGTGCTAG`, “fitted relative affinity” read 0.952 z-score.
For `TTAGGTTTCGACACTGGGTCAGTGCTA`, “fitted relative affinity” read 2.43 z-score.
`TTAGGTTTCGGGACTGGGTTTGTGCTA`: “fitted relative affinity” 4.02 z-score.
Under “fitted relative affinity”, `TCATAATTCTGATTGGAACTGTGCTAG` is recorded as 0.476 z-score.
Under “fitted relative affinity”, `TCACTCTTCTTTTTTTTACTGTGCTAG` is recorded as 1.91 z-score.
`TTAGATTTCAGTCTCGCTTAGTGCTAG` — result for “fitted relative affinity”: 2.26 z-score.
`CTATGAAGTCATGTCTTCAGGTGCTAG` — result for “fitted relative affinity”: -0.265 z-score.
Under “fitted relative affinity”, `TTAGGTAGCGACTATCGGTTAGTGCTA` is recorded as -0.252 z-score.
Under “fitted relative affinity”, `TCATGGTTCTTGCTTGGTACTGTGCTA` is recorded as -0.702 z-score.
`CAGGTTTCTGATGGGCCTAGGTGCTAG`: “fitted relative affinity” 1.13 z-score.

For quick reference, copied from above (set 2):
For `R123Y`, the ABA EC50 was 6.96 µM.
`F66H` gave an ABA EC50 of 8.54 µM.
For `M176W`, the ABA EC50 was 2.34 µM.
The ABA EC50 of `H34S` is reported as 2.69 µM.
For `F66Y`, the ABA EC50 was 4.07 µM.
With `R90N` the ABA EC50 was 59.8 µM.
For `V76S`, the ABA EC50 was 160 µM.
With `G71Y` the ABA EC50 was 266 µM.
The ABA EC50 of `T101H` is reported as 94 µM.
With `Q7F` the ABA EC50 was 1.03 µM.
The ABA EC50 of `E151D` is reported as 3.33 µM.
